Results from different studies.
Each numbered part is a random draw from the data of one study; scales do not carry over between parts. Changes are numbered by the printed parent chain.

Series 1
Target: TAR DNA-binding protein 43, full length, His tag (TARDBP, Homo sapiens, UniProt Q13148, residues 1-414)
Method: RNA Bind-n-Seq
Molecule type: RNA
Medium: in vitro
Tested at: 20 nM
Notes: 6-mer, flanks averaged, single round
With: 150 mM LiCl
Relative to: input library
Direction: higher = stronger binding
Strand | 6-mer enrichment (R)
UGUGGC | 1.27
GCUAUA | 0.908
UGGUAC | 0.953
UAACUG | 0.88
UGGUUA | 1.09
AAAAGG | 0.893
GUGAAA | 0.994
GGGCGG | 1.33

Series 2
Target: CCNE2, cyclin fold, Cln2 fusion (human)
Method: yeast growth competition, sequencing
Medium: yeast
Notes: strong parent motif
Relative to: not given
Direction: higher = stronger binding
Starting sequence: RBL2 docking peptide (human); STTRRRLFVENDS; partner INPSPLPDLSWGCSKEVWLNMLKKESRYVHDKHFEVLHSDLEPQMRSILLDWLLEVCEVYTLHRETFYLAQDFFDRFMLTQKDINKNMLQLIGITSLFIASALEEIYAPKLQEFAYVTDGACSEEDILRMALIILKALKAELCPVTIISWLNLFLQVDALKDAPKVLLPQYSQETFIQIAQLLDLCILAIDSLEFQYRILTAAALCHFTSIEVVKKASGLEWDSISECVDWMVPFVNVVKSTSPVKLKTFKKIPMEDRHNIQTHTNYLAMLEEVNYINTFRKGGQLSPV
Change | normalised enrichment score
STTRRRVFVENDS [L7V] | 0.0617
STTRRRLFNENDS [V9N] | 3.83
STTRRRLFRENDS [V9R] | 2.67
STTRRALFVENDS [R6A] | 0.476
VTTRRRLFVENDS [S1V] | 3.89
STTRRRLFVENDE [S13E] | 4.81
QTTRRRLFVENDS [S1Q] | 4.89
STTRRRLFVEMDS [N11M] | 4.52

Series 3
Target: Sal-like protein 4, full length isoform B (SALL4, Homo sapiens, UniProt Q9UJQ4-2, residues 1-616)
Method: universal PBM
Molecule type: double-stranded DNA, one strand shown
Medium: in vitro
Tested at: not given
Notes: 8-mer, flanks averaged, mean of replicates
Direction: higher = stronger binding
Strand | E-score
AGTCCTCA | -0.0487
CTGGCTAC | -0.0797
ACACAGTG | -0.0394
ACCGTAAA | 0.18
CGTACCTC | -0.19
AGGTATAA | 0.25
ATTTGTGC | 0.156
CGTGTGGC | -0.0831

Single results of other studies
Starting sequence: PafA, mature enzyme, eGFP fusion (Elizabethkingia meningoseptica, UniProt Q9KJX5); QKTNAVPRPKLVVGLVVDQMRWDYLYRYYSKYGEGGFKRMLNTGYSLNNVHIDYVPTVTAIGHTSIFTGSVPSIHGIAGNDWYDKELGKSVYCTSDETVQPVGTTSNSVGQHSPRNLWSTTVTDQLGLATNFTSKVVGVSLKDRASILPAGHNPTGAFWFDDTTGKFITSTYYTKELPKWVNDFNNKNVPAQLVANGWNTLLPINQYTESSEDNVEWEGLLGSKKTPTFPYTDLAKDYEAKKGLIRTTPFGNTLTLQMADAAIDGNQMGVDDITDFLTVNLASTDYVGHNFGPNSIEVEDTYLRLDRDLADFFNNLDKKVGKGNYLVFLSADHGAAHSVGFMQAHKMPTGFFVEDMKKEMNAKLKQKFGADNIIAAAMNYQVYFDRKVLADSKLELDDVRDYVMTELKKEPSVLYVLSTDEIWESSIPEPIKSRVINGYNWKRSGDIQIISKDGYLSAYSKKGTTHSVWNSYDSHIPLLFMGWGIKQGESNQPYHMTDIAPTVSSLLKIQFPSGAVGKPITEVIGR
Change | target | test | test system | conditions | scale | endpoint | value
H495V | tungstate, free oxyanion | microfluidic competitive inhibition | in vitro, cell-free expressed | not given, derived from inhibition constants, unchanged parent 2230 nM | lower = stronger binding | oxyanion analog dissociation constant | 2.17 µM
